{"data": "Results collected from several papers", "MAPK8": "MAPK8, pT183, pY185 (Homo sapiens, UniProt P45983)", "B1": "CER1 Fc fusion 18-267 R82G/C206A (Homo sapiens, UniProt O95813); sequence looked up; chain TRHQDGRQNQSSLSPVLLPRNQRELPTGNHEEAEEKPDLFVAVPHLVATSPAGEGQRQREKMLSGFGRFWKKPEREMHPSRDSDSEPFPPGTQSLIQPIDGMKMEKSPLREEAKKFWHHFMFRKTPASQGVILPIKSHEVHWETCRTVPFSQTITHEGCEKVVVQNNLCFGKCGSVHFPGAAQHSHTSASHCLPAKFTTMHLPLNCTELSSVIKVVMLVEECQCKVKTEHEDGHILHAGSQDSFIPGVSA", "B2": "VEGFA VEGF121 N-terminal KKK addition (Homo sapiens); chain KKKAPMAEGGGQNHHEVVKFMDVYQRSYCHPIETLVDIFQEYPDEIEYIFKPSCVPLMRCGGCCNDEGLECVPTEESNITMQIMRIKPHQGQHIGEMSFLQHNKCECRPKKDRARQEKCDKPRR", "note": "Compare with care: the assays were run in different laboratories. Numbers after ± are the reported error.", "UniProt P45983, sequence (whole entry, looked up)": "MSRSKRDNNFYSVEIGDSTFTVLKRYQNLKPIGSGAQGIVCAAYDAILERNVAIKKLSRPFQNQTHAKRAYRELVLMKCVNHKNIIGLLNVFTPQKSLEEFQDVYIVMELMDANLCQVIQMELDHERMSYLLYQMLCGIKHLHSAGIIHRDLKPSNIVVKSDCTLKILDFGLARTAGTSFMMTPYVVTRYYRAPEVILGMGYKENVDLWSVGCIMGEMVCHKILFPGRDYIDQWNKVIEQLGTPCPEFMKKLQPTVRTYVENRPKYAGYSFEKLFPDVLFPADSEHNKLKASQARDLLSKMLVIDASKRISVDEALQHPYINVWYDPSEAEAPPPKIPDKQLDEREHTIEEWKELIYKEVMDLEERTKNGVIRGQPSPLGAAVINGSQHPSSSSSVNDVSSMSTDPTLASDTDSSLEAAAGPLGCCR", "UniProt P09529, sequence (whole entry, looked up)": "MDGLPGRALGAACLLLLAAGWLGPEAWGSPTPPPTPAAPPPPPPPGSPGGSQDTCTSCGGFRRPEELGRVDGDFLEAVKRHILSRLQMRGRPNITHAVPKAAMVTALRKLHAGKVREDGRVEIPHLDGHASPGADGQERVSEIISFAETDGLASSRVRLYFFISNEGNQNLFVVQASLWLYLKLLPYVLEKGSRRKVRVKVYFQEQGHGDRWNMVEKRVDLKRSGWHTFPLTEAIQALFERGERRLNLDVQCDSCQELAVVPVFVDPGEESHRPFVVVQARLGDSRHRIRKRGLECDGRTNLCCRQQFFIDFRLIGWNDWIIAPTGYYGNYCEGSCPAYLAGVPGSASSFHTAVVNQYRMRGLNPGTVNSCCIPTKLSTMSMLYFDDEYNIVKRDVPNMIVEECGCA", "UniProt O60656, sequence (whole entry, looked up)": "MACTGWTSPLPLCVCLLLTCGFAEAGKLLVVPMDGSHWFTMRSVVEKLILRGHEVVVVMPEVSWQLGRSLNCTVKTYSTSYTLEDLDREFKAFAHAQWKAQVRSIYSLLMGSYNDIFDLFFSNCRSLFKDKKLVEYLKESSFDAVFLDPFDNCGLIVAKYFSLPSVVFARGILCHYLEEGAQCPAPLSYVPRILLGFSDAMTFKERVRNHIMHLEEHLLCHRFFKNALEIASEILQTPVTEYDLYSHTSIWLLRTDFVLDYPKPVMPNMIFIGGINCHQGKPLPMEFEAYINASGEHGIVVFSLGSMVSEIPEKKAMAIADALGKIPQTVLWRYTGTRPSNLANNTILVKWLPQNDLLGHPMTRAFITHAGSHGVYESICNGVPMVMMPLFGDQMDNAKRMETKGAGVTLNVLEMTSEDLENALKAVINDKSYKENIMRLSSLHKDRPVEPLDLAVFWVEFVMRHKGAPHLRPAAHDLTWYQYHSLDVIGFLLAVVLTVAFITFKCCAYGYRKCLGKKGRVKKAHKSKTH", "UniProt P35968, sequence (whole entry, looked up)": "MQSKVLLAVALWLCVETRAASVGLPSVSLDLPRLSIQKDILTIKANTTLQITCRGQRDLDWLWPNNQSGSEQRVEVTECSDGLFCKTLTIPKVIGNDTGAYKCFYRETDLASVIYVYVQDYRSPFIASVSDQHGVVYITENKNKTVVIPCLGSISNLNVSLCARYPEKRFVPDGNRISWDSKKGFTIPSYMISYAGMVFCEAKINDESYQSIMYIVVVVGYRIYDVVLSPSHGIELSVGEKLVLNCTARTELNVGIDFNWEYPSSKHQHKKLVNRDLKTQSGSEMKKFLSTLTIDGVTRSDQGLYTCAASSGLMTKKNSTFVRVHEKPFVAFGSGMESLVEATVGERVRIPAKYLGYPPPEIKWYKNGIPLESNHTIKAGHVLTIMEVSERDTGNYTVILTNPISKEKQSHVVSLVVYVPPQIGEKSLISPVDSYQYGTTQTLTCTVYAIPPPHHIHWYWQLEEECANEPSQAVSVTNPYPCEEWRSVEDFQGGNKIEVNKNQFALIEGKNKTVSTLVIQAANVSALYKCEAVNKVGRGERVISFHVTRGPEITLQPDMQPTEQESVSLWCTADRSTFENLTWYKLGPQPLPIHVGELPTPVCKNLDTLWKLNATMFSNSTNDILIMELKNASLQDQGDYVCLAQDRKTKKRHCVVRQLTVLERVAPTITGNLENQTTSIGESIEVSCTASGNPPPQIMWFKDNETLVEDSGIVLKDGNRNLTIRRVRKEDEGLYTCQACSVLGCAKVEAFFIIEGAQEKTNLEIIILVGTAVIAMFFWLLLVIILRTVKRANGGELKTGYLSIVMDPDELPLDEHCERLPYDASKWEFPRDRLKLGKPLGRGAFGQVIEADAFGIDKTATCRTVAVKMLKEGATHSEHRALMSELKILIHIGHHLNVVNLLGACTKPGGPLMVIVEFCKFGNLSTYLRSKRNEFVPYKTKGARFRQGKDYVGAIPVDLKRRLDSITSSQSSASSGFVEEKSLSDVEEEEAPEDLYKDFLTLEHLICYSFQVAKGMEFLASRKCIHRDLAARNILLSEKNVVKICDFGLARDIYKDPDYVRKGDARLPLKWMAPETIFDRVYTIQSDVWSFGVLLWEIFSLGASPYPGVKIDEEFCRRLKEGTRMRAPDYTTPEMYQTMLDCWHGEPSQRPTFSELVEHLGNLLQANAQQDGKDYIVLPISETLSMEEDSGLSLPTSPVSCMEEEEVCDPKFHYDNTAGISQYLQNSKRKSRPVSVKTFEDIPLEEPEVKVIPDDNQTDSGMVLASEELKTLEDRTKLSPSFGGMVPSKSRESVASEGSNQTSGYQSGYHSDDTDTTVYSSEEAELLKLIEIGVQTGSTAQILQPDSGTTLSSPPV", "UniProt P54764, sequence (whole entry, looked up)": "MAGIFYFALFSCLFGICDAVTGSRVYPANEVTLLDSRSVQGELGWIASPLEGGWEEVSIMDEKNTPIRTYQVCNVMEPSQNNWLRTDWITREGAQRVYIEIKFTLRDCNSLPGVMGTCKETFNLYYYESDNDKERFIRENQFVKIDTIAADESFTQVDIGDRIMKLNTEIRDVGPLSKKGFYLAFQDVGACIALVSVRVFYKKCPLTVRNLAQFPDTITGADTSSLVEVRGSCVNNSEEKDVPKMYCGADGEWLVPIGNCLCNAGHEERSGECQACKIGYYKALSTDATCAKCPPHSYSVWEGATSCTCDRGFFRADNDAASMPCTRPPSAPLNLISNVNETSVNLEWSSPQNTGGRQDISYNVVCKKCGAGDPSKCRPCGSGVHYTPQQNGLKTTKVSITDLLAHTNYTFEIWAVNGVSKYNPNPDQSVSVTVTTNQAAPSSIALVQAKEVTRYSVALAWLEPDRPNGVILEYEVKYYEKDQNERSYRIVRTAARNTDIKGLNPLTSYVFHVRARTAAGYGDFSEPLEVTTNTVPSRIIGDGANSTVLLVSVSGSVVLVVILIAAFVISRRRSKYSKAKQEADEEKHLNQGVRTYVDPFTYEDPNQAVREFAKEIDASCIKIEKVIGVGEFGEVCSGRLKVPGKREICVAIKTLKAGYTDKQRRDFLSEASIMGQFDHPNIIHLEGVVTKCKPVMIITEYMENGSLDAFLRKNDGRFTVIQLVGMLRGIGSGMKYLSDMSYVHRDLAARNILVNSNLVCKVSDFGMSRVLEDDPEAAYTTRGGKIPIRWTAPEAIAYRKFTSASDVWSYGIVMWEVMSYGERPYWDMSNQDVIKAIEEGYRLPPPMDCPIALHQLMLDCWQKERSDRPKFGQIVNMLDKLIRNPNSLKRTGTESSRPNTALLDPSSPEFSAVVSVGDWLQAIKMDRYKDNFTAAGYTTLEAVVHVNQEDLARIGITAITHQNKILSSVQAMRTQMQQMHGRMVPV", "UniProt Q9NYZ4, sequence (whole entry, unmodified, looked up)": "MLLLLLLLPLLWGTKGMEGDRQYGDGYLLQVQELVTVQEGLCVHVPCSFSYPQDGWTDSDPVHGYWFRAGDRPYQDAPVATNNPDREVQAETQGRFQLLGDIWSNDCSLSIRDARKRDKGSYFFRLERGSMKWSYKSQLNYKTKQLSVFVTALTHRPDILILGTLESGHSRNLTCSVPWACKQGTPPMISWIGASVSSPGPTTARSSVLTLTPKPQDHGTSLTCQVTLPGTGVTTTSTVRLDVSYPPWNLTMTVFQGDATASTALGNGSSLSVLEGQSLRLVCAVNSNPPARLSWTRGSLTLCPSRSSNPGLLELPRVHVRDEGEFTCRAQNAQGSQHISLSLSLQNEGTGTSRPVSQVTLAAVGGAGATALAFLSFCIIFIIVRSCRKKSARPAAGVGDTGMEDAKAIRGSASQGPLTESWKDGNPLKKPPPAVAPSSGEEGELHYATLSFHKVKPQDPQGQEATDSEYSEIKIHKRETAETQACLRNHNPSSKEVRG"}
{"Substance": "YAYPGPARPASLGLGP (CDX1 D-site peptide (Homo sapiens))", "target or system": "MAPK8", "assay": "kinase activity, inhibitor, competitive kinase inhibition assay", "system": "peptide", "conditions": "together with: ATP 1 mM", "endpoint": "IC50", "result": "2.7 µM"}
{"Substance": "Insulin human", "system": "rat, dorsal cortex", "conditions": "intranasal, 20 µg per nostril, 15 min", "endpoint": "brain concentration", "result": "41.8 ± 25.6 pg/mg tissue"}
{"Substance": "KYLPYWPVLSSL (KYL peptide 12-mer)", "target or system": "EPHA4 29-209 (Homo sapiens, UniProt P54764)", "assay": "competition with ligand, fluorescence polarisation", "system": "peptide", "conditions": "together with: FITC-KYL", "endpoint": "IC50", "result": "4.22 ± 0.5 µM"}
{"Substance": "QDGGWS (THBS1 residues 434-439 (Homo sapiens))", "target or system": "FN1 intact plasma (Homo sapiens)", "assay": "competition with coated peptide, radioligand binding", "system": "peptide", "endpoint": "IC50", "result": "> 300 µM"}
{"Substance": "B1", "target or system": "INHBB mature (Homo sapiens, UniProt P09529)", "assay": "SMAD3 luciferase reporter, inhibitor", "system": "Fc fusion, A-204", "conditions": "together with: Activin B 0.8 nM", "endpoint": "IC50", "result": "0.0037 µM"}
{"Substance": "TFEB fragment E77A/N78V", "target or system": "Ppp3ca/Ppp3r1 calcineurin A and B (Rattus norvegicus)", "assay": "calcineurin dephosphorylation, inhibitor, colorimetric phosphatase assay", "endpoint": "IC50", "result": "190 µM"}
{"Substance": "YANQLKFRKKKLKFCK (SETD1B D-site peptide (Homo sapiens))", "target or system": "MAPK8", "assay": "kinase activity, inhibitor, competitive kinase inhibition assay", "system": "peptide", "conditions": "together with: ATP 1 mM", "endpoint": "IC50", "result": "28 µM"}
{"Substance": "B2", "target or system": "KDR (Homo sapiens, UniProt P35968)", "assay": "competition with ligand, radioligand binding", "system": "PAE/KDR", "conditions": "together with: 125I-VEGF165", "endpoint": "IC50", "result": "0.00065 µM"}
{"Substance": "KRFKQDGGWSHWSPWSS (THBS1 residues 430-446 (Homo sapiens))", "target or system": "FN1 intact plasma (Homo sapiens)", "assay": "competition with coated peptide, radioligand binding", "system": "peptide", "endpoint": "IC50", "result": "200 µM"}
{"Substance": "UGT1A9 (Homo sapiens, UniProt O60656)", "target or system": "COc1cc(/C=C/C(O)=C/C(=O)/C=C/c2ccc(O)cc2)ccc1O", "assay": "steady-state kinetics", "conditions": "pH 7.4, 37 °C", "endpoint": "Vmax", "result": "0.000258 µmol/min/mg"}
{"Substance": "YAGEQRRRRLELQLQE (MYH14 D-site peptide (Homo sapiens))", "target or system": "MAPK8", "assay": "kinase activity, inhibitor, competitive kinase inhibition assay", "system": "peptide", "conditions": "together with: ATP 1 mM", "endpoint": "IC50", "result": "5.6 µM"}
{"Substance": "GGWSHW (THBS1 residues 436-441 (Homo sapiens))", "target or system": "FN1 intact plasma (Homo sapiens)", "assay": "competition with coated peptide, radioligand binding", "system": "peptide", "endpoint": "IC50", "result": "29 ± 11 µM"}
{"Substance": "DMBT1 mature, O-linked sialylated keratan sulfate (Homo sapiens, UniProt Q9UGM3)", "target or system": "SIGLEC8 17-363 (Homo sapiens, UniProt Q9NYZ4)", "assay": "competition with Siglec-8 binding, inhibitor, binding inhibition assay", "conditions": "apparent", "endpoint": "IC50", "result": "< 0.0001 µM"}
{"Substance": "GWSHW (THBS1 residues 437-441 (Homo sapiens))", "target or system": "FN1 intact plasma (Homo sapiens)", "assay": "competition with coated peptide, radioligand binding", "system": "peptide", "endpoint": "IC50", "result": "> 300 µM"}
{"Substance": "YAERPSRDHLYLPLEP (NFATC3 D-site peptide (Homo sapiens))", "target or system": "MAPK8", "assay": "kinase activity, inhibitor, competitive kinase inhibition assay", "system": "peptide", "conditions": "together with: ATP 1 mM", "endpoint": "IC50", "result": "0.89 µM"}
